Results pooled from the literature.
Every numbered part comes from another study and shows a few of its results, in no order.

Study 1
Target: RING finger protein unkempt homolog, zinc fingers 1-6, GST-SBP tag (UNK, Homo sapiens, UniProt Q9C0B0, residues 30-357)
Method: RNA Bind-n-Seq
Form: RNA
Sample: in vitro
Tested at: not given
Notes: RNA with constant flanks, ends assumed
Relative to: input RNA pool
Reading: higher = stronger binding
Construct (chain): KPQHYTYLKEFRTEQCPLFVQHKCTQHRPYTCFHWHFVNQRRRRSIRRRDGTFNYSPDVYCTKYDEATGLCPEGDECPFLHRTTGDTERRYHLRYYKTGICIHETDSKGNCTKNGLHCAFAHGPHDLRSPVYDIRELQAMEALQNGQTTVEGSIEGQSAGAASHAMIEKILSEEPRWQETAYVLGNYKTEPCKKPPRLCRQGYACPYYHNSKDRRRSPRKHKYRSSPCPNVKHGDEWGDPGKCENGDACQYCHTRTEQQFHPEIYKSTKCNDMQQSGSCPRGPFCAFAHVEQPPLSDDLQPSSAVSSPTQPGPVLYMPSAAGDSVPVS
`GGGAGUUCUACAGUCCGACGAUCUUUUAUGCACCCACCGCAGCUGUUGAAAGCAUGGUGGAGCACUUGUCUCGAGAUACCGAUGUGAUCCGAGGGAAUAUUGUCAAACACCCUCUGACCCAGGAACUAAAAGAAUGUGAAGGGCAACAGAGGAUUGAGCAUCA` gave a bound/input enrichment of 0.0942 ratio.
The bound/input enrichment of `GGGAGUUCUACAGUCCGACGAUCGUUUUCCAUCUUUAUCAAUGCAUUCGUGUUGGUCUUGAUGUAUACUACCUGUUCCCCGUGUUAUUUUUACACGUCAUCUCACAGUAAUAAUAUCAGCAAUUCUUGCUGCAUUGAACAUAUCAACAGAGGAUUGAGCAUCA` is reported as 0.191 ratio.
The bound/input enrichment of `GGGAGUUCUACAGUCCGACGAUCAUGAUAAUGGCAUCAGCUGCUAAGGAAUUUAAAAUGGACAACUUUUCACCUAAAGCUGGCACCCGCAAAUUGCAACAGACAGUACCAGCUGAUGCAUCUCCUGAUUCUAAGUGUCCUAUACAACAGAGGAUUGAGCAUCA` is reported as 0.0972 ratio.
`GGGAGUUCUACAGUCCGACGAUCUUGCAUGGAGACAUUCCACAGAAGCAAAGGGAAAUCACCCUGAAAGGUUUUAGAAAUGGCCGUUUUGGAGUUUUGGUGGCAACCAAUGUUGCUGCACGUGGGUUAGACAUCCCUGAGGUUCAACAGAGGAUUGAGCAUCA` gave a bound/input enrichment of 0.222 ratio.
For `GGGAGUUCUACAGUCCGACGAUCUACGAAACAGUGGUUGGCCCUGGUGAUGUUCUUUACAUCCCAAUGUACUGGUGGCAUCACACCGAGUCAUUACUAAAUGGGGGGAUUACCAUCACUGUGAACUUCUGGUAUAAGGGGGCUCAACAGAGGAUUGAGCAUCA`, the bound/input enrichment was 0.101 ratio.
With `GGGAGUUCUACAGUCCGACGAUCCACAAGUGGAUGGUACUUUUGGAAACUGAACUCUUGUUGUUUUGUUUUUUUAUUGUAAGUCUCCGCCCUUAAUGGCUGAGUUGUCUCUUUAACCAGGAUGGCACUUUUAGGAAUGGUGACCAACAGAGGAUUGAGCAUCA` the bound/input enrichment was 1.88 ratio.
With `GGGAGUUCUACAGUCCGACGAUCAGCAUGGACUCGAAAGCAAAUAUUGUACAUGGUCUAUCAGUCUUGGAAAUCUGUCUUAUAACCGCAAUGAAACAUUUAAAUGACAUCUAUGAGGAAGAGCCAUUUAAUUUUCAAAUGGUCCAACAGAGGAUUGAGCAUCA` the bound/input enrichment was 0.183 ratio.
For `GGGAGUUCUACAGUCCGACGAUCUUUCUAUUGCAGCAGACCAUGCUACGAGUGAAGGAUCCUAAGAAGUCACUGGAUUUUUAUACCCGAGUUCUUGGAAUGACGCUAAUCCAAAAAUGUGAUUUUCCCAUUAUGAAGUUUUCACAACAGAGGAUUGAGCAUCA`, the bound/input enrichment was 0.0857 ratio.

Study 2
Target: RNA binding protein fox-1 homolog 2, RRM domain, GST-SBP tag (RBFOX2, Homo sapiens, UniProt O43251-10, residues 100-194)
Method: RNA Bind-n-Seq
Form: RNA
Sample: in vitro
Tested at: 365 nM
Notes: natural RNA segment, single round, ends assumed
Relative to: no-protein control
Reading: higher = stronger binding
Target sequence (chain): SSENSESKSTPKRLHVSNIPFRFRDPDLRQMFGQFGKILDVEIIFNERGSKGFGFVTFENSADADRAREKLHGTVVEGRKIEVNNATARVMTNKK
`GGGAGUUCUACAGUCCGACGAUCCUUAUCAGCUUCCUGUUUCUUCCCAUACUUGCAUACACCACUGCAAAAUGUCUUAAUGCAAAUUUUGUAUUUCUUACAGGCCUACAGAAAUUGAAAAUGACCAAAAUCAGUGGAAUUCUCGGGUGCCAA` — result for “RBNS enrichment (R)”: 0.506.
Under “RBNS enrichment (R)”, `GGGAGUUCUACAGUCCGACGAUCGUGUACCUGCUGGAAGAAUUCUAGCAUGCUACUUGGGGACAUAAUUUCAGUGGGAAAUAUGCCACUGACCGAUUUUUUUUUUUUCCUCUUUGCAGUGGGGCUAGGACAGUUGGAAUUCUCGGGUGCCAA` is recorded as 8.
`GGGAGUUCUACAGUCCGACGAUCUUCUAUUUUUGUAACCUUCCUAUUUUGUAGCUCUGUUUAGAGAGAUGCUGGUUUUUGCCUGAAGGCCCUGCAGCCUGCCCACAUCAGGUUAAACCCACAGCUUUUGUGUGUGGAAUUCUCGGGUGCCAA`: “RBNS enrichment (R)” 1.05.
`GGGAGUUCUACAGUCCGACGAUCCGCCGCCUCGCCCACCGCAUGCCCCCUCGUGCCAGUCGCGCUGCCUGUGUGGUGUCGCGCCUUCUCCCCCCCGGGGCUGGGUUGGCGCACCCUCCCCUCCCGUCUACUCAUGGAAUUCUCGGGUGCCAA` — result for “RBNS enrichment (R)”: 2.56.
`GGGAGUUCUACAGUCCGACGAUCGGCAUGGAACGCAGUGCUCUUCACCGUCUGGCGAGUGCAUGCCAAGAGAGCUAGACAGCAGCAUUACCCACUCUGAAGUUUUCUACAAGAGAGUUGAGUGAAUCUGUUUAUGGAAUUCUCGGGUGCCAA` — result for “RBNS enrichment (R)”: 3.57.
`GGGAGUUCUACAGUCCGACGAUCUCACUUUGUAGACCAGGCUGGCCUCGAACUCAGAAAUCCGCCUGCCUCUGCCUCCCGAGUGCUGGGAUUAAAGGCGUGCGCCACCACGCCCGGCUCUGUUCAUCCUUUUAUGGAAUUCUCGGGUGCCAA`: “RBNS enrichment (R)” 0.339.
For `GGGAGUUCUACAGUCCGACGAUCCUCUGUGGACCCUCCCCCUCUCCCAACCUAGGCCUGUCUGGCAUGCUGCAAGGACCAGAGCCAGCCCCCAGGAGCCUCAGGGCCCACUUAGGAAGGAUGCCUUGUGCCUAUGGAAUUCUCGGGUGCCAA`, “RBNS enrichment (R)” read 1.46.
For `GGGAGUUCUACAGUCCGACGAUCUAAACCUUUCUGUAUUUGAGAGAGAUGCAAACUUCUAGAGUAAAAGUUGAAUAAAAAGUCACAGAGGAUGUAAAUUUUGUACAGGACUAGAAUGUAAAUGAAGCUUGCUUUGGAAUUCUCGGGUGCCAA`, “RBNS enrichment (R)” read 1.6.

Study 3
Target: Sal-like protein 4, full length isoform A (SALL4, Homo sapiens, UniProt Q9UJQ4, residues 1-1053)
Sequence of UniProt Q9UJQ4 (whole entry, looked up): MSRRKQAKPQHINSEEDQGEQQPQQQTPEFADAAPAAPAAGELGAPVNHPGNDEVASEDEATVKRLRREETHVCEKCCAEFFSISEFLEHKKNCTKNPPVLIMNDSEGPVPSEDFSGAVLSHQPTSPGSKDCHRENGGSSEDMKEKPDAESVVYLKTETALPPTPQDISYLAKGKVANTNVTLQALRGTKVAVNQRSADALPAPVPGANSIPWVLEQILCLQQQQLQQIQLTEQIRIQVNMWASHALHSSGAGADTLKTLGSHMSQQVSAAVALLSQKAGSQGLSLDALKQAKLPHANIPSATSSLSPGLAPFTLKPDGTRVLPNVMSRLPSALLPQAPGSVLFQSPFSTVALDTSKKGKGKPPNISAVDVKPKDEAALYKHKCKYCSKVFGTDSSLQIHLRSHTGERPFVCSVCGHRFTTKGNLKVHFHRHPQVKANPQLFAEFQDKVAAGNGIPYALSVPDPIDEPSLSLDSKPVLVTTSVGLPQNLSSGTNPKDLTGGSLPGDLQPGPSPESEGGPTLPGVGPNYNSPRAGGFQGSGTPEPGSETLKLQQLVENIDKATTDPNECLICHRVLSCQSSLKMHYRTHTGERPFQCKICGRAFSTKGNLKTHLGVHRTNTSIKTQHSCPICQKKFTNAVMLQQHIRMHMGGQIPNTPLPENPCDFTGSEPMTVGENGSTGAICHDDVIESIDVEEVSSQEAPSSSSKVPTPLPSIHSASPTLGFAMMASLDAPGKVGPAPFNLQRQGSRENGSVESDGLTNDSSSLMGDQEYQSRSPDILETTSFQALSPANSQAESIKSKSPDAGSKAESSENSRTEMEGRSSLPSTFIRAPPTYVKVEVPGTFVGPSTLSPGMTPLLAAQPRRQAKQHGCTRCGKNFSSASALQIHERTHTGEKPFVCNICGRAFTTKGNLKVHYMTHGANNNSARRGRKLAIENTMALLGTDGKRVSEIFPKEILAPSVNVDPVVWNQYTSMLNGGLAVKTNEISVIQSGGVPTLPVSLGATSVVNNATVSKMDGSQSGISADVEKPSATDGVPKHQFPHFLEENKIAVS
Method: universal PBM
Form: double-stranded DNA, one strand shown
Sample: in vitro
Tested at: 600 nM
Notes: 8-mer, flanks averaged, mean of replicates
Reading: higher = stronger binding
The E-score of `ATTCAGGC` is reported as -0.0411.
`AATGAAGG` gave an E-score of 0.112.
`TAGTACTA` gave an E-score of 0.114.
The E-score of `TCATGGAA` is reported as 0.244.
For `CGGTAGAA`, the E-score was -0.188.
With `GACAGAAA` the E-score was 0.173.
For `CTAGGCCC`, the E-score was -0.3.
`TGACGGCA` has an E-score of -0.0954.
For `CAACTAGC`, the E-score was -0.0716.
The E-score of `CGCTACGA` is reported as -0.0405.
The E-score of `ATTTGCAC` is reported as 0.159.
With `CGGTATGC` the E-score was -0.187.
`CGTGTTGA` has an E-score of 0.048.
For `CGTGCGAG`, the E-score was -0.258.
With `GCTAAAAA` the E-score was 0.131.
With `CCCAACAG` the E-score was -0.186.
The E-score of `TCCCTGAA` is reported as 0.00128.
With `ATGCTTAG` the E-score was 0.228.
With `TACGCTCA` the E-score was 0.123.
The E-score of `ACGTCCCC` is reported as -0.205.
The E-score of `CCCAGGCC` is reported as -0.434.
The E-score of `AGCTATAA` is reported as 0.247.

Study 4
Target: Prothrombin, mature alpha-thrombin (F2, Homo sapiens, UniProt P00734)
Method: aptamer microarray, sandwich
Form: DNA with 2'F-ANA
Sample: in vitro
Tested at: 200 nM
Notes: whole 15-mer aptamer, many near background
With: Cy3 exosite-II aptamer, 400 nM
Reading: higher = stronger binding
Sequence: GGTTGGTGTGGTTGG
`2'F-ANA at 4 7 8 12 14` — result for “mean fluorescence intensity”: 220 a.u.
`2'F-ANA at 1 4 5 6 11 12 14` — result for “mean fluorescence intensity”: 45.3 a.u.
For `2'F-ANA at 1 2 5 6 7 8 10 12 14 15`, “mean fluorescence intensity” read 114 a.u.
For `2'F-ANA at 2 6 7 9 11 13 14`, “mean fluorescence intensity” read 99 a.u.
Under “mean fluorescence intensity”, `2'F-ANA at 2 5 6 7 9 10 11 12 14` is recorded as 51.5 a.u.
For `2'F-ANA at 1 2 3 4 6 8 10 11 13`, “mean fluorescence intensity” read 61.7 a.u.
`2'F-ANA at 3 4 7 10 12 14` — result for “mean fluorescence intensity”: 239 a.u.
`2'F-ANA at 1 2 5 8 11 12 14` — result for “mean fluorescence intensity”: 47.9 a.u.
For `2'F-ANA at 1 4 7 11 12 13 14`, “mean fluorescence intensity” read 121 a.u.
For `2'F-ANA at 1 2 4 5 7 8 9 10 14`, “mean fluorescence intensity” read 71.7 a.u.
Under “mean fluorescence intensity”, `2'F-ANA at 1 2 4 11 14 15` is recorded as 54.6 a.u.
For `2'F-ANA at 1 2 9 11 14`, “mean fluorescence intensity” read 58.6 a.u.
Under “mean fluorescence intensity”, `2'F-ANA at 2 6 7 9 10 12 13 15` is recorded as 155 a.u.
`2'F-ANA at 2 5 7 8 10 12 14`: “mean fluorescence intensity” 50.7 a.u.
For `2'F-ANA at 1 5 13 14`, “mean fluorescence intensity” read 42 a.u.
Under “mean fluorescence intensity”, `2'F-ANA at 2 6 10 12 13 14` is recorded as 86.6 a.u.
